Measured values collected from several papers.
Compare with care: the assays were run in different laboratories. ± gives the spread as reported. No end group written: not given here.
B1: bicyclic; chain AATCHCRRSCYSTEYSYGTCTVMGINHRFCCL (also: bicyclic or more (positions not given here))

Substance	target or system	test	system	setting	how to read	endpoint	result
GSGAGPETLV	human MAGI1-3/6 PDZ construct (MBP fusion)	automated holdup	peptide, purified PDZ protein	concentration not given, unit not given	relative to: biotin control resin, higher = stronger binding	binding intensity	0.472
B1	–	sedimentation velocity AUC	10 mM sodium phosphate	100 µM, pH 7.4, 20 °C	–	sedimentation coefficient S20,w	0.846 S
FNA / CGLSGLGVA-NH2 ([18F]FNA-labelled, C-amide)	–	ex vivo gamma counting	peptide, healthy mouse, spleen	60 min post injection	–	tissue uptake	0.28 %ID/g
Teicoplanin	–	–	QC solution	7 days, 2–6 °C, high QC level	–	recovery	97.8%
Rilpivirine docusate	–	–	buffer	pH 1.2	–	equilibrium solubility	4.34 ± 0.07 µg/mL
Polymyxin B	–	untargeted LC-MS metabolomics, item: L-ornithine	Sprague-Dawley rat, right cerebral cortex	intracerebroventricular, 0.75 mg/kg, 1 h	relative to: NaCl control	log2 fold change	-4.2
coproporphyrin I	–	–	human, plasma	baseline day	–	mean daily plasma concentration	0.833 ± 0.034 nM
caspofungin	–	–	adult ICU patients, mITT, serum	dose not given, day 14	–	albumin	25.9 g/L
KTKEGVVHGVATVA	–	far-UV circular dichroism, item: Turns	peptide, PBS	10 µM, pH 7.4, 25 °C	–	secondary structure content	24.3%
VMRLQSETSV	human MAGI1-3/6 PDZ construct (MBP fusion)	automated holdup	peptide, purified PDZ protein	concentration not given, unit not given	relative to: biotin control resin, higher = stronger binding	binding intensity	0.106
regorafenib N-β-glucuronide	–	–	Oatp1b2 knockout mice, plasma	oral, 10 mg/kg regorafenib single dose	–	Tmax	2.1 ± 0.82 h
